Measured values pooled from the literature.
Compare with care: the assays were run in different laboratories. Numbers after ± are the reported error. In brackets after ≈: the same amount, converted by molar mass.

CNCc1cc(N(C)C)c2c(c1O)C(=O)C1=C(O)[C@]3(O)C(=O)C(C(N)=O)=C(O)[C@@H](N(C)C)[C@@H]3C[C@@H]1C2
MIC (Streptococcus pneumoniae; microbial growth, broth dilution): 1 mg/L (≈ 2 µM)

Cc1ccc2nc(-c3ccc(F)c(F)c3)c(CN3CCC(c4ccccc4)CC3)n2c1
EC50 (Trypanosoma cruzi; 3T3 host cells, Tulahuen beta-galactosidase; 6 days): 1.1 µM

Nc1ncnc2c1c(-c1ccc(Cl)c(C(F)(F)F)c1)cn2[C@@H]1O[C@H](CO)[C@@H](O)[C@H]1O
EC50 (Trichomonas vaginalis; resorufin; G3, metronidazole-sensitive; 24 h + 2 h, 2% O2): 12.7 ± 0.47 µM

O=C(c1ccc(Cl)c([N+](=O)[O-])c1)N1CCN(c2ccccc2F)CC1
IC50 (Saccharomyces cerevisiae; cell growth; wild type): 2.87 ± 0.6 µM

CC1(C)NCCC[C@]2(C)[C@H]3CC=C4[C@@H]5C[C@@](C)(CO)CC[C@]5(C)CC[C@@]4(C)[C@]3(C)CC[C@@H]12
EC90 (Human cytomegalovirus; cytopathic effect; HFF, AD169): > 6 µM

CCc1ccc2c(c1O)C(c1ccc(OC)c(OC)c1)OC2=O (stereo not shown)
IC50 (Naegleria fowleri; parasite growth, resazurin; ATCC30808; 48 h): ≥ 318 µM

COc1ccc(-n2nc3c(=O)n(Cc4cccc(NC(=O)c5ccccc5)c4)nc(C)c3c2C)cc1
selectivity index (Zika virus; Vero, MR766; relative to: CC50 over EC50): > 3.3

COc1cc(/C=C/c2cc(/C=C/c3ccc(O)c(OC)c3)n(-c3ccc([N+](=O)[O-])cc3[N+](=O)[O-])n2)ccc1O
inhibition (Spodoptera frugiperda; cell growth or viability, MTT; Sf9; 100 µM, 72 h): 91.7%

CN(Cc1cc(N(C)C)c2c(c1O)C(=O)C1=C(O)[C@]3(O)C(=O)C(C(N)=O)=C(O)[C@@H](N(C)C)[C@@H]3C[C@@H]1C2)CC(C)(C)C
MIC (Streptococcus pneumoniae; 157E; 50% mouse serum): 0.25 mg/L (≈ 0.438 µM)

CC[C@H](C)[C@H](NC(=O)[C@H](CCCN)NC(=O)[C@H](CC(N)=O)NC(=O)[C@H](Cc1c[nH]c2ccccc12)NC(=O)[C@H](Cc1ccccc1)NC(=O)[C@H](CCCN)NC(=O)[C@H](CCCNC(=N)N)NC(=O)[C@H](CC(C)C)NC(=O)[C@H](Cc1c[nH]c2ccccc12)NC(=O)[C@H](CCCN)NC(=O)[C@H](CCCNC(=N)N)NC(=O)[C@H](CC(C)C)NC(=O)CNC(C)=O)C(=O)N[C@@H](CCCN)C(=O)N[C@@H](CCCNC(=N)N)C(N)=O
geometric mean MIC (Gram-negative bacteria): 3.72 µM

Cc1csc(NCc2cc(N(C)C)c3c(c2O)C(=O)C2=C(O)[C@]4(O)C(=O)C(C(N)=O)=C(O)[C@@H](N(C)C)[C@@H]4C[C@@H]2C3)n1
MIC (Streptococcus pneumoniae; ATCC 700905, Tet M ribosome protection): 4 mg/L (≈ 6.85 µM)

CCCCCc1ccc2c(c1O)C(c1ccc(OC)c(OC)c1OC)OC2=O (stereo not shown)
ATP level decrease (Naegleria fowleri; trophozoite ATP, CellTiter-Glo; ATCC 30808; concentration not given, 24 h, 37 °C; relative to: untreated): 67.1%

CCOC(=O)c1c(-c2ccc(C)cc2)oc2ncccc12
EC50 (Trypanosoma cruzi; 3T3 host cells, Tulahuen beta-galactosidase; 6 days): 8.6 µM

CC(C)CNCc1cc(N(C)C)c2c(c1O)C(=O)C1=C(O)[C@]3(O)C(=O)C(C(N)=O)=C(O)[C@@H](N(C)C)[C@@H]3C[C@@H]1C2
MIC (Streptococcus pneumoniae; ATCC 700905, Tet M ribosome protection): 0.25 mg/L (≈ 0.461 µM)

CCCCCCn1ccc([C@H](C)[C@](O)(Cn2cnnn2)c2ccc(F)cc2F)n1
MIC (Candida tropicalis; growth, broth microdilution; 2718; 24 h, 30 °C, ≥50% inhibition): 0.0625 mg/L (≈ 0.155 µM)

COc1ccc(Nc2c(C#N)cnc3ccc(Cl)cc23)cc1
IC50 (Trypanosoma cruzi; growth; Y, epimastigote; 72 h): 19.5 ± 2.5 µM

A few entries again:
CCc1ccc2c(c1O)C(c1ccc(OC)c(OC)c1)OC2=O (stereo not shown)
IC50 (Naegleria fowleri; parasite growth, resazurin; ATCC30808; 48 h): ≥ 318 µM

CCCCCCn1ccc([C@H](C)[C@](O)(Cn2cnnn2)c2ccc(F)cc2F)n1
MIC (Candida tropicalis; growth, broth microdilution; 2718; 24 h, 30 °C, ≥50% inhibition): 0.0625 mg/L (≈ 0.155 µM)
